Assay results of several laboratories.
A part holds a random share of what one study measured.

Series 1 — method: competition protein-binding microarray; molecule type: double-stranded DNA, one strand shown; medium: in vitro; concentration: 2 µM; together with: Pho4 competitor, 0.05 µM; direction: higher = stronger binding; quantity: fluorescence intensity; shared flanks, not repeated: … GTCTTGATTCGCTTGACGCTGCTG
Target: Centromere-binding protein 1, full length, His-tagged (CBF1, Saccharomyces cerevisiae, UniProt P17106, residues 1-351)
Chain of UniProt P17106 (whole entry, looked up): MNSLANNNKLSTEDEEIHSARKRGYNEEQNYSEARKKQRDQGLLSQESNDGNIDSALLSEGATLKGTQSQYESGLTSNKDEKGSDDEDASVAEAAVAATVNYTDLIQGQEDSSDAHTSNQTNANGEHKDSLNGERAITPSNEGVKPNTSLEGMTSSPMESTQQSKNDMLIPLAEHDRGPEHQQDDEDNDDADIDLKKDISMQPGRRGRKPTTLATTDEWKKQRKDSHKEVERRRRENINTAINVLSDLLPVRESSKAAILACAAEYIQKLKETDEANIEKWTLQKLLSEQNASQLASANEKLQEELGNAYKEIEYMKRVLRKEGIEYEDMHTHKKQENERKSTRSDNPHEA
Setting: whole 60-bp probe, lowest competitor level
CTTCTGTAAATTTGTGACGTGGGTGGACGCGCCCCG: 82.4 a.u.
CGGGGTTAAGTTTGAGATGTGGGTGGCTTGCAGCAG: 66.5 a.u.
CGTCCTAGTGATTGGAGGGTGGGTGCCATGAGGAAG: 89.8 a.u.
CGGGGTTAAGTTTGGATGGTGGGTGGCTTGCAGCAG: 47.8 a.u.
AAGATATTGTTCGACCATGTGTTAAATGCCAGTAAT: 169 a.u.
CAATTGGGTATGAATCACACGCAATCAGCCCAATCA: 94.9 a.u.
AAGCGGATGGACTGGCACGCTCACCATCTGGGTTGG: 47.4 a.u.
ATTTCCGGGACGAGTCACGCTGTTATCAATGACTTT: 294 a.u.
CTTCTGTAAATTTGTACAGTGGGTGGACGCGCCCCG: 98.8 a.u.

Series 2 — method: protein-binding microarray; molecule type: double-stranded DNA, one strand shown; medium: in vitro; concentration: 2540 nM top; setting: 60-bp whole probe; together with: salmon DNA 0.4 mg/ml; reference: random background probes; direction: higher = stronger binding; quantity: fitted relative affinity; shared flanks, not repeated: GCCTAGCAC … GTCTTGATTCGCTTGACGCTGCTG
Target: Interferon regulatory factor 3, full length, phosphomimetic (IRF3, Homo sapiens, UniProt Q14653, residues 1-427, S386D/S396D/S398D/S402D/T404D/S405D)
Residues (chain): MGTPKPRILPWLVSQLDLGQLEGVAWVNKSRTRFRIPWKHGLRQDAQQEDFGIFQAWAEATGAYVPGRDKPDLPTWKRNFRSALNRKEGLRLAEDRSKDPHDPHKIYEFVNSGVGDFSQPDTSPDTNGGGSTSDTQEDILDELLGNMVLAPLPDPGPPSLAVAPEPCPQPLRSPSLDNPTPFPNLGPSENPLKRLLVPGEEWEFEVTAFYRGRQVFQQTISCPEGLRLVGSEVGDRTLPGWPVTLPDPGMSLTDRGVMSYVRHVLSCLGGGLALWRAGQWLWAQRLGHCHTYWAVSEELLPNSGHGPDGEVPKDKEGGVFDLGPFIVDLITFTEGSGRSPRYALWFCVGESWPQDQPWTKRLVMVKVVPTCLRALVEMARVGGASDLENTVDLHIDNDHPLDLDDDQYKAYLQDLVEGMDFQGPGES
GACGGTATCAGTCTCGAGACGTGCTAG: 3.71 z-score
TTAGGAATGCTTATCCTTTAGTGCTAG: 0.126 z-score
GACGGTTTCGGTTCCAGGACGTGCTAG: 9.24 z-score
TTAGAACTGGGGTTTCGATCAGTGCTA: 0.248 z-score
TCAGGTATCGACTATCGGTTAGTGCTA: 0.663 z-score
GACGGTCTCGGTAACGGGACGTGCTAG: 0.322 z-score
GACGGACTGGGTCTCGTGACGTGCTAG: -0.811 z-score
TCAAATGTCCTCCTCTCACTGTGCTAG: 0.739 z-score
GACGAACTGGGTTTCGGGACGTGCTAG: 1.56 z-score

Series 3 — method: protein binding microarray; molecule type: double-stranded DNA, one strand shown; medium: in vitro; concentration: not given; reference: not given; direction: higher = stronger binding; quantity: E-score
Target: Histone acetyltransferase KAT6A, winged helix 1, GST fusion (KAT6A, Homo sapiens, UniProt Q92794, residues 1-85)
Setting: 8-mer, flanks averaged, mean of 2 arrays, mostly near background
Residues (chain): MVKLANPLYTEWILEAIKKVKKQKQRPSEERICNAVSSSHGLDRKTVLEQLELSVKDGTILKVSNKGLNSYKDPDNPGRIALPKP
CATATGGG: -0.0336
ATTTTATG: -0.0797
TAGGGTCA: -0.189
CGTTAACG: 0.206
CGGGGCTA: 0.0786
CCTTCATA: -0.0232
CTGATGTA: -0.104
ACTTGAGG: -0.185
AGCTAAAT: -0.162
GGAAGTCC: 0.00439
ATCTACAT: -0.304
ACGGACGA: 0.185
GTCTACGA: -0.214
TCCCGCGA: 0.372

Series 4 — method: Sort-seq; item: YFP reporter; medium: E. coli; setting: PhoQ-PhoP variant library; together with: 10 µM Mg2+; reference: high Mg2+ state; direction: higher = stronger signaling; quantity: fold induction
Molecule: PhoQ, residues 284 288 289 292 302 303 SIHLQL
PhoP, residues 12 14 15 18 19 HHYTI (Escherichia coli, UniProt P23836): 13.4
PhoP, residues 12 14 15 18 19 SFCSL (Escherichia coli, UniProt P23836): 6.97
PhoP, residues 12 14 15 18 19 AYFRS (Escherichia coli, UniProt P23836): 12.8

For quick reference, copied from above (series 3):
GGAAGTCC: 0.00439
ATCTACAT: -0.304
ACGGACGA: 0.185
GTCTACGA: -0.214
